Earlier results as cited in several papers.
Protocols differ between the studies behind these lines. Several values in a cell are separate wells, animals, samples, runs or records. ± gives the spread as reported. [ ]: non-standard residue; d: D form.
Grin2a with GluN1a subunit: Glutamate receptor ionotropic, NMDA 2A, with GluN1a subunit (Grin2a, Rattus norvegicus, UniProt Q00959)
ADORA1: Adenosine receptor A1 (ADORA1, Homo sapiens, UniProt P30542)
Sequence of UniProt P30542 (whole entry, looked up): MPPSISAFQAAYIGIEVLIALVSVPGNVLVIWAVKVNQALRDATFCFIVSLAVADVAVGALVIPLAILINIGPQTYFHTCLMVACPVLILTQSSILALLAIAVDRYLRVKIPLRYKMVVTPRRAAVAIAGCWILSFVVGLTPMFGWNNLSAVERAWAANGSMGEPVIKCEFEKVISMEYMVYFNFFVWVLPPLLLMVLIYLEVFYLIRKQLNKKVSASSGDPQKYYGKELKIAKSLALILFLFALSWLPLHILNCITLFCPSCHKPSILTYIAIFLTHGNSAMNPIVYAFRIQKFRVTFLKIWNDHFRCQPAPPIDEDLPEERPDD
Equilibrative nucleoside transporter 2: Equilibrative nucleoside transporter 2 (Homo sapiens, UniProt Q14542)
Sequence of UniProt Q14542 (whole entry, looked up): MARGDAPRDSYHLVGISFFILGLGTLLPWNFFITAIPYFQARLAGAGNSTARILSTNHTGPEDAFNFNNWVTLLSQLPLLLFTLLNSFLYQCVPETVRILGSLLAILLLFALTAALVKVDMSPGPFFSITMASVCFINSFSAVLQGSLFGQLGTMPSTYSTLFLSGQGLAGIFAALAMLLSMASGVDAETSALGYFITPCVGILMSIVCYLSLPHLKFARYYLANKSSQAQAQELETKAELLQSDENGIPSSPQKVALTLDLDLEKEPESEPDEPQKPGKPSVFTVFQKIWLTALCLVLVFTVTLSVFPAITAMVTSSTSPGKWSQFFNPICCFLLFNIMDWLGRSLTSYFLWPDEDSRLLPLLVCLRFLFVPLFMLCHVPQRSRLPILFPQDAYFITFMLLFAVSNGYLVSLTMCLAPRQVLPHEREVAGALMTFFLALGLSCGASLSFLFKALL
Sequence of UniProt P30536 (whole entry, looked up): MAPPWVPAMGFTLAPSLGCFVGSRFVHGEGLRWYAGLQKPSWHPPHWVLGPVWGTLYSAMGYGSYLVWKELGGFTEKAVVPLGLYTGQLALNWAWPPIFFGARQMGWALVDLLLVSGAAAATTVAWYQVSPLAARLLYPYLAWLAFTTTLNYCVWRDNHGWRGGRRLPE
Sequence of UniProt Q9Y6L6 (whole entry, looked up): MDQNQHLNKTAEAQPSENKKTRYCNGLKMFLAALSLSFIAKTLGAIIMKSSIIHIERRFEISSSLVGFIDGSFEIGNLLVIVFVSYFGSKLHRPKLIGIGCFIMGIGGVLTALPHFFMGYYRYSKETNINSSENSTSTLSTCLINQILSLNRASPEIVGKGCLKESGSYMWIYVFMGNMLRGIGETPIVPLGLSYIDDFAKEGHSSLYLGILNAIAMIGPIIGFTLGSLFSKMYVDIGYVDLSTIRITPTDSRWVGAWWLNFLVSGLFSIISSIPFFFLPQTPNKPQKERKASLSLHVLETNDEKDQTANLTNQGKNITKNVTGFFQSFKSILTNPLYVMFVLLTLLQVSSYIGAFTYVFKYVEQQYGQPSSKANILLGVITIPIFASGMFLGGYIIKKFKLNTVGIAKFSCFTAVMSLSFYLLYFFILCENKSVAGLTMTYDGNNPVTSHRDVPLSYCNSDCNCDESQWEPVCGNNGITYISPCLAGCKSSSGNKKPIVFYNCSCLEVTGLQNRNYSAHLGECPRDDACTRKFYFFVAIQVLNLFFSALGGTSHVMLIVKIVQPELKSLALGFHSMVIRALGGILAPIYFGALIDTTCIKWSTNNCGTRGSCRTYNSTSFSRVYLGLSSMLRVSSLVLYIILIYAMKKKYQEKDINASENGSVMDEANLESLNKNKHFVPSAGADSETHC
Sequence of UniProt P0C061 (whole entry, looked up): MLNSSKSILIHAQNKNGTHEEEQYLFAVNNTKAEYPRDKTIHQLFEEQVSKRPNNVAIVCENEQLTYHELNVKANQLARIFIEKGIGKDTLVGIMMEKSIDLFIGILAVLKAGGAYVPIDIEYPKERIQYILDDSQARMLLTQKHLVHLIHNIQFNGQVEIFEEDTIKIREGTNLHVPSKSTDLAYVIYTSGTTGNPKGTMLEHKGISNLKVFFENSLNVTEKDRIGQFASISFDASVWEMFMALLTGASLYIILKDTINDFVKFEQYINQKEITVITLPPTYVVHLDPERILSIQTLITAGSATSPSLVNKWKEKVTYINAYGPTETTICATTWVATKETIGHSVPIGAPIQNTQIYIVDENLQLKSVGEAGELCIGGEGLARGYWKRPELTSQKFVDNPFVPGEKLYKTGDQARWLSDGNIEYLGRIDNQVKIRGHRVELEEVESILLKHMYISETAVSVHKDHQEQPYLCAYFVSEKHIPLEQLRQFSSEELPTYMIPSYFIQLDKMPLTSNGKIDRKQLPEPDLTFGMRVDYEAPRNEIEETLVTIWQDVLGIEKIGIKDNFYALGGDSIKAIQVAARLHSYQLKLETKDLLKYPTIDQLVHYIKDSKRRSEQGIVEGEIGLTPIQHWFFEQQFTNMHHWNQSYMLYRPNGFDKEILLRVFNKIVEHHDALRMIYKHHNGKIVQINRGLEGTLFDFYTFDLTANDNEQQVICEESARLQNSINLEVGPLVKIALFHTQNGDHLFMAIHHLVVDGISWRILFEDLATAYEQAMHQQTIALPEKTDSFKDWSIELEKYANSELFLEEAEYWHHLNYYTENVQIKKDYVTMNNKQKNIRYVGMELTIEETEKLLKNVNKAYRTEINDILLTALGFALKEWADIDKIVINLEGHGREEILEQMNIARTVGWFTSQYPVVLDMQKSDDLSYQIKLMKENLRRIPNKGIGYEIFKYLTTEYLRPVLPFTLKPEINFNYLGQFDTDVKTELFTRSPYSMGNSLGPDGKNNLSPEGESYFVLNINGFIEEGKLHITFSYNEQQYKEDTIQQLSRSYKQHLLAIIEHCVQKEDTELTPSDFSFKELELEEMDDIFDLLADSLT
Sequence of UniProt O35433 (whole entry, looked up): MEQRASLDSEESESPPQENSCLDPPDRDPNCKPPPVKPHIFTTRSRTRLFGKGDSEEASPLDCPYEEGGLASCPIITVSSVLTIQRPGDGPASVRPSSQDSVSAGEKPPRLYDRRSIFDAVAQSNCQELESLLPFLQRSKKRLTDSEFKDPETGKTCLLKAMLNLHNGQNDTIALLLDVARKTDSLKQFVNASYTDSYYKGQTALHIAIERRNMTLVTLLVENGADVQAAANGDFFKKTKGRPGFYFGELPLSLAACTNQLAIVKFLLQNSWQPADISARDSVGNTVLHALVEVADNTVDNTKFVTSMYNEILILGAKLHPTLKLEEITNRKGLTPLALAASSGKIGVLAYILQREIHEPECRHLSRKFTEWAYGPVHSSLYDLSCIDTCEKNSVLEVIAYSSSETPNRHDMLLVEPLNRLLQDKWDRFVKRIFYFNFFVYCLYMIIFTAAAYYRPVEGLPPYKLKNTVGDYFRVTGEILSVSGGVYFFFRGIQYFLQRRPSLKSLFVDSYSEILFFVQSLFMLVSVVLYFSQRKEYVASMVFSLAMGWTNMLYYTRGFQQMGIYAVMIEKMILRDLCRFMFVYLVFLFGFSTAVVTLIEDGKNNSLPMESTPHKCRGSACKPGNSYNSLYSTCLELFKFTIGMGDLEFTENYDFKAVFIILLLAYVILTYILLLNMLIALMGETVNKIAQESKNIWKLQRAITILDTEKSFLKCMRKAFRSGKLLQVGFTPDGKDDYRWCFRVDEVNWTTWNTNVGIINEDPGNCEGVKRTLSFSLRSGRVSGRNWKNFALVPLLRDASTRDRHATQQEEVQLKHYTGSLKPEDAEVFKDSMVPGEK

Molecule	target	assay	test system	setting	Ki
OCC1CC(n2cnc3c(SCc4ccccc4Cl)ncnc32)C(O)C1O (centres unmarked)	adenosine kinase (Toxoplasma gondii)			apparent Ki equals apparent Km	24 ± 5.4 µM
COc1ccc(S(=O)(=O)N2CCN(C(=O)c3ccc(-c4ccccc4)cc3)CC2C(=O)NO)cc1 (centres unmarked)	ADAM17	inhibitor		literature value	0.0006 ± 0.0003 µM
CO[C@H]1/C=C/O[C@@]2(C)Oc3c(C)c(O)c4c(O)c(c(/C=N/N5CCN(C)CC5)c(O)c4c3C2=O)NC(=O)/C(C)=C\C=C\[C@H](C)[C@H](O)[C@@H](C)[C@@H](O)[C@@H](C)[C@H](OC(C)=O)[C@@H]1C	SLCO1B1 (Homo sapiens, UniProt Q9Y6L6)	inhibitor			0.48 µM
CSC[C@H]1CN(Cc2c[nH]c3c(N)ncnc23)C[C@@H]1O	Aminodeoxyfutalosine nucleosidase (Helicobacter pylori, UniProt Q9ZMY2)	inhibitor			8.6e-05 µM
O=C(O)[C@@H]1NCCN(C(=O)c2ccc3c(ccc4ccccc43)c2)[C@H]1C(=O)O	Grin2a with GluN1a subunit	ion current, antagonist	Xenopus oocytes expressing GluN1/GluN2A, rat		10.5 ± 1.2 µM
Nc1ncnc2c(CN3CC(CSc4ccc(Cl)cc4)[C@H](O)C3)c[nH]c12 (some centres unmarked)	MTAP (Homo sapiens, UniProt Q13126)	slow-onset tight-binding inhibitor			1e-05 µM
O=[N+]([O-])c1ccc(CNc2nc(NCc3cccc(C(F)(F)F)c3)nc3[nH]cnc23)cc1	inositol hexakisphosphate kinase				0.24 µM
C=CC[C@@H]1/C=C(\C)C[C@H](C)C[C@H](OC)[C@H]2O[C@@](O)(C(=O)C(=O)N3CCCC[C@H]3C(=O)O[C@H](/C(C)=C/[C@@H]3CC[C@@H](O)[C@H](OC)C3)[C@H](C)[C@@H](O)CC1=O)[C@H](C)C[C@@H]2OC	FKBP	rotamase activity, inhibitor			0.001 to 0.002 µM
N#Cc1ccc(CSc2ncnc3c2ncn3C2CC(CO)C(O)C2O)cc1 (centres unmarked)	adenosine kinase (Toxoplasma gondii)			apparent Ki equals apparent Km	129 ± 25 µM
C[C@H](CCC(=O)O)[C@H]1CC[C@H]2[C@@H]3CC[C@@H]4C[C@H](O)CC[C@]4(C)[C@H]3CC[C@]12C	SLC10A2 (Homo sapiens, UniProt Q12908)	bile acid transport, inhibitor			2.1 µM
O=C(O)[C@H]1NCCN(C(=O)c2ccc(-c3ccccc3)cc2)[C@H]1C(=O)O	Grin2a with GluN1a subunit	ion current, antagonist	Xenopus oocytes expressing GluN1/GluN2A, rat		15.7 ± 0.4 µM
OCC1CC(n2cnc3c(SCc4ccccc4F)ncnc32)C(O)C1O (centres unmarked)	adenosine kinase (Toxoplasma gondii)			apparent Ki equals apparent Km	55 ± 10 µM
CNC(=O)[C@@]12C[C@@H]1[C@@H](n1cnc3c(NCc4cccc(I)c4)nc(Cl)nc31)[C@H](O)[C@@H]2O	ADORA1	radioligand binding	CHO cells expressing human A1 receptor		0.136 ± 0.022 µM
OCC1CC(n2cnc3c(SCc4ccc(Cl)cc4)ncnc32)C(O)C1O (centres unmarked)	adenosine kinase (Toxoplasma gondii)			apparent Ki equals apparent Km	16 ± 2.2 µM
CNC(=O)[C@@]12C[C@@H]1[C@@H](n1cnc3c(NCc4cccc(Cl)c4)nc(Cl)nc31)[C@H](O)[C@@H]2O	ADORA1		CHO	added: [3H]NECA	0.26 ± 0.06 µM
COC(=O)c1ccc(CSc2ncnc3c2ncn3C2CC(CO)C(O)C2O)cc1 (centres unmarked)	adenosine kinase (Toxoplasma gondii)			apparent Ki equals apparent Km	41 ± 3.2 µM
CC1CN(c2ccc3ccccc3n2)CCN1CCCN1C(=O)c2ccccc2C1=O (centres unmarked)	SERT (human)	binding	human tissue	added: [3H]5-HT	0.08 µM
COc1ccccc1CN(C(C)=O)c1cnccc1Oc1ccccc1	Translocator protein, open form (TSPO, Homo sapiens, UniProt P30536)		human brain tissue	high-affinity binders	~0.004 µM and 0.0034 µM
CC(Oc1ccc(O)cc1)(P(=O)(O)O)P(=O)(O)O	inositol monophosphatase, human frontal cortex	inhibitor			0.3 µM
NCCCNC(=O)[C@H]1O[C@@H](n2cnc3c(N)ncnc32)[C@H](O)[C@@H]1O	adenosine A1 receptor	binding			> 10 µM
Nc1ncnc2c1ncn2[C@@H]1O[C@H](COS(=O)(=O)NC(=O)[C@@H](N)Cc2ccccc2)[C@@H](O)[C@H]1O	grsA, holo form (Aneurinibacillus migulanus, UniProt P0C061)	enzyme activity, tight-binding inhibitor, hydroxamate-MesG coupled			0.0012 ± 0.00014 µM

Molecule	target	assay	test system	setting	Ki
CC[C@H](C)[C@H](NC(=O)[C@@H](NC(=O)[C@H](CO)NC(=O)[C@@H](NC(=O)[C@@H]1CCCN1C(=O)[C@H](Cc1c[nH]c2ccccc12)NC(=O)[C@H](CCCNC(=N)N)NC(=O)[C@H](CO)NC(=O)[C@H](CC(N)=O)NC(=O)[C@H](C)N)[C@@H](C)O)[C@@H](C)CC)C(=O)O	Na(+)/H(+) exchange regulatory cofactor NHE-RF2, PDZ domain 2 (Homo sapiens, UniProt Q15599)	binding, fluorescence polarization displacement		PDZ domain 2, added: fluorescent CFTR peptide	> 1000 µM
OC[C@H]1O[C@@H](n2cnc3c(O)ncnc32)[C@H](O)[C@@H]1O	Equilibrative nucleoside transporter 2		ENT1 knockout		65 ± 24 µM
C[C@H]1O[C@@H](O[C@H]2[C@@H](O)C[C@H](O[C@H]3[C@@H](O)C[C@H](O[C@H]4CC[C@@]5(C)[C@H](CC[C@@H]6[C@@H]5C[C@@H](O)[C@]5(C)[C@@H](C7=CC(=O)OC7)CC[C@]65O)C4)O[C@@H]3C)O[C@@H]2C)C[C@H](O)[C@@H]1O	Na+/K+-ATPase human recombinant	enzyme activity, inhibitor			0.25 µM
C=CCN1CCC[C@H]1CNC(=O)c1cc(CCCF)cc(OC)c1OC	dopamine D3 receptor	binding	cell line	added: [3H]spiperone	0.0003 µM
O=C(O)[C@H]1NCCN(C(=O)c2ccc3c(ccc4cc(Br)ccc43)c2)[C@H]1C(=O)O	Grin2a with GluN1a subunit	ion current, antagonist	Xenopus oocytes expressing GluN1/GluN2A, rat		0.32 ± 0.01 µM
CC(=O)N[C@@H]1[C@@H](O)[C@H](O)[C@@H](CO)O[C@@H]1O	hexose transporter		Trypanosoma cruzi, epimastigote	added: radiolabeled D-glucose uptake	156 µM
O=C(O)c1cccc([C@H]2CCN[C@@H]2C(=O)O)c1	NMDA receptor rat	binding	rat synaptosomes	added: [3H]CGP-39653	6 µM
O=C(O)[C@H]1NCCN(Cc2ccc3c(ccc4ccccc43)c2)[C@H]1C(=O)O	Glutamate receptor ionotropic, NMDA 2B, with GluN1a (Grin2b, Rattus norvegicus, UniProt Q00960)	ion current, antagonist	Xenopus oocytes expressing GluN1/GluN2B, rat		10.3 ± 1.9 µM
Cc1cn([C@H]2C[C@H](O)[C@@H](CO)O2)c(=O)[nH]c1=O	Equilibrative nucleoside transporter 2		ENT1 knockout		42 ± 8 µM
OCC1CC(n2cnc3c(SCc4c(F)cccc4Cl)ncnc32)C(O)C1O (centres unmarked)	adenosine kinase (Toxoplasma gondii)			apparent Ki equals apparent Km	31 ± 4.2 µM
C[C@@H]1CCO[C@H]2Cn3cc(C(=O)NCc4ccc(F)cc4F)c(=O)c(O)c3C(=O)N12	SLC22A2 (Homo sapiens, UniProt O15244)	inhibitor		geometric mean of reported	2.12 µM
CNc1ccc(-c2nc3ccc(O)cc3s2)cc1	amyloid beta fibrils	binding	in vitro generated fibrils		0.0047 µM
O=C(O)c1ccc(/C=C2\SC(=S)N(c3cccc(C(F)(F)F)c3)C2=O)cc1	CFTR (Homo sapiens, UniProt P13569)	channel function	permeabilized cells		0.2 to 0.3 µM
O=C(O)/C(=C/c1c(C(=O)O)[nH]c2cc(Cl)cc(Cl)c12)c1ccccc1	glycine binding site rat	[3H]glycine binding	rat brain membranes		0.0109 µM
Ac-W[dPhe(4-I)]RW-NH2 (N-acetyl, D-4-iodo-Phe2, C-amide; dPhe(4-I) = N[C@H](Cc1ccc(I)cc1)C(=O)O)	mouse MC3R	antagonist, Schild analysis	HEK293		3.7 µM
O=C(O)c1cc([C@H]2CCN[C@@H]2C(=O)O)ccc1Br	Grik2 (Rattus norvegicus, UniProt P42260)	binding, [3H]kainate displacement		cloned homomeric receptor	> 100 µM
Cc1ccccc1CSc1ncnc2c1ncn2C1CC(CO)C(O)C1O (centres unmarked)	adenosine kinase (Toxoplasma gondii)			apparent Ki equals apparent Km	25 ± 3.3 µM
OCCN(CCO)c1nc(N2CCCCC2)c2nc(N(CCO)CCO)nc(N3CCCCC3)c2n1	TSPO			added: [3H]Ro5-4864	0.156 µM
CC(C(=O)NCc1ccc(C(C)(C)C)cc1)c1ccc(NS(C)(=O)=O)c(F)c1 (centres unmarked)	Trpv1 (Rattus norvegicus, UniProt O35433)	binding	CHO expressing rat TRPV1	added: [3H]resiniferatoxin	0.0462 µM
2'-fluoro-2'-deoxyadenosine	P1 adenosine transporter, Trypanosoma brucei	adenosine transport	Trypanosoma brucei bloodstream forms		0.063 ± 0.009 µM

For quick reference, copied from above:
Molecule	target	assay	test system	setting	Ki
CO[C@H]1/C=C/O[C@@]2(C)Oc3c(C)c(O)c4c(O)c(c(/C=N/N5CCN(C)CC5)c(O)c4c3C2=O)NC(=O)/C(C)=C\C=C\[C@H](C)[C@H](O)[C@@H](C)[C@@H](O)[C@@H](C)[C@H](OC(C)=O)[C@@H]1C	SLCO1B1 (Homo sapiens, UniProt Q9Y6L6)	inhibitor			0.48 µM
CSC[C@H]1CN(Cc2c[nH]c3c(N)ncnc23)C[C@@H]1O	Aminodeoxyfutalosine nucleosidase (Helicobacter pylori, UniProt Q9ZMY2)	inhibitor			8.6e-05 µM
O=C(O)[C@@H]1NCCN(C(=O)c2ccc3c(ccc4ccccc43)c2)[C@H]1C(=O)O	Grin2a with GluN1a subunit	ion current, antagonist	Xenopus oocytes expressing GluN1/GluN2A, rat		10.5 ± 1.2 µM
